# Measurements gathered from unrelated publications.
# A part holds a random share of what one study measured. Positions count from the first letter of the parent shown.

# Study 1
# Target: RNA binding protein fox-1 homolog 2, RRM domain, GST-SBP tag (RBFOX2, Homo sapiens, UniProt O43251-10, residues 100-194)
# Technique: RNA Bind-n-Seq
# Form: RNA
# Matrix: in vitro
# Concentration: 365 nM
# Notes: natural RNA segment, single round, ends assumed
# Relative to: no-protein control
# Direction: higher = stronger binding
# Construct (chain): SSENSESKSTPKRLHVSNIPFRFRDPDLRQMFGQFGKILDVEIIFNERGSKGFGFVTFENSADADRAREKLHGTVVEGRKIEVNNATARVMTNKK
Strand,RBNS enrichment (R)
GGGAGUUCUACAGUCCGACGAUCAACACUGUCUCAUGUUGUGCUUCUUAAACGACAAAGAACAUAGUGACUUUUGGGGAUAGAUCUGUCUGGGAGAUAAUGUGAGUCCAGGAGGCAUUACUCUUCCCUGCCUCUGGAAUUCUCGGGUGCCAA,0.413
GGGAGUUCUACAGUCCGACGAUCACUUAAAAAGGGUUCUUUGUUGGGAGUCAAGUGACAGAGCAGACCUGGCCGCAGGGAGUUGUUCUGCUUCUGCUUUACCUCUCAGGACCAUUCCCAGGAGGAAAAGGUGGUGGAAUUCUCGGGUGCCAA,0.162
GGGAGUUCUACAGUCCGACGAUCAUGUGAACAGUGAGGAUCAGAGGUUUUAUCAGAACACAUUCUUUUUUUCUACCAACUCUCCAGAGCGUGAGUAUAGGAGUGCCAUGAGCUUUUUAGUCAGCAGUUUUGUAUGGAAUUCUCGGGUGCCAA,0.639
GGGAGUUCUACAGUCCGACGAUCCCCAACAGUAGUGCUUUAUGGUCAGUAUUCUAUGUGGAGACCUUGCACCUUGUAAUCAUCAAUACAUCCACCAAAAAUAUAUAAUGUACCAUAUAUAUUAAUAGUCAACAUGGAAUUCUCGGGUGCCAA,0.816
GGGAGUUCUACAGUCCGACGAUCGCUUUCCUGGGCCUCUCAGUUGAACAAAGCAGCAAAACAAAGGCAGUUUUAUAUGAAAGAUUAGAAGCCUGGAAUAAUCAGGCUUUUUAAAUGAUGUAAUUCCCACUGUAUGGAAUUCUCGGGUGCCAA,0.433
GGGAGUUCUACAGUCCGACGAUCCAGAAACUGUUCACAAAAGUCAACUAGCUGGCUCAGUUUUGCUGGCUUUGUGUAGAUUUGUGUAGAGCAGGAAAGCCAAGUUCACAGGUUGGGGUGCCUUCAUUUGCAUGUGGAAUUCUCGGGUGCCAA,2.15
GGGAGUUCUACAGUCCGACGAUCAUGAGUGACCAUCCGUCCGAAUGUUCUCCCACUUCCUUCAGCCUCUCCUCGGCUUCUUGCACUGAGCUGGCCUCACGUGUUGACUGAGGGAGCCCCUGAGCCCCAACCUUUGGAAUUCUCGGGUGCCAA,0.247
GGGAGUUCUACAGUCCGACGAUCGACAAAUCAUGGUAGAGGUGCCCACCAACCAGUUUGCACAGUGGAGGCCACCUGACAUGCAUUAGCCUGGACUUCUCUGAGAGCUGGGCACAGCUUGCAGGACCCUGGCUUGGAAUUCUCGGGUGCCAA,1.71
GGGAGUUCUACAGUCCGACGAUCUCAGUAAUGCCUGCCAGCAGCACCUUUAAUUUCAGCUGGUGGCCUGUGAUGGGUUCUGUUUACCUUUUGCAACAUUUUAUAGCUUGUUUAGUGACUAGUGUGUAGUGAGUUGGAAUUCUCGGGUGCCAA,0.858
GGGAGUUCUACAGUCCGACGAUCUAGUAUAUAUAUCAUUUUCUGGCCUUUUAAAAUUUAUUUGAGACCUCUUGAUGAAAUGGACAUAUUAUAUAUUUCUGCCACCUGGAUUUUCCUGGAUAAUUUGAUGGAAUUGGAAUUCUCGGGUGCCAA,0.602
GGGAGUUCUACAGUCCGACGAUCCGUUCUCCUGCUUGUACUAAGCCAGGAGGCUUUAAGCUCCAGCUUUAAGGGUUGUGAGCCCCUUGGGGGUUCAGGGAACUGCUUGCCCAGGGUGCAGUGUGAGUGUGAUGUGGAAUUCUCGGGUGCCAA,0.652
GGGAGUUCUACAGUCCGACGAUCCUAAAAAUACAAAAAAAAAUUAGCUAGGCGUAGUGGUUGGCACCUAUAGUCCCAGCUACUCGGAAGGCUGAAGCAGGAGAAUGGUAUGAAUCCAGGAGGUGGAGCUUGCAUGGAAUUCUCGGGUGCCAA,6.85

# Study 2
# Target: Sal-like protein 4, full length isoform A (SALL4, Homo sapiens, UniProt Q9UJQ4, residues 1-1053)
# Sequence of UniProt Q9UJQ4 (whole entry, looked up): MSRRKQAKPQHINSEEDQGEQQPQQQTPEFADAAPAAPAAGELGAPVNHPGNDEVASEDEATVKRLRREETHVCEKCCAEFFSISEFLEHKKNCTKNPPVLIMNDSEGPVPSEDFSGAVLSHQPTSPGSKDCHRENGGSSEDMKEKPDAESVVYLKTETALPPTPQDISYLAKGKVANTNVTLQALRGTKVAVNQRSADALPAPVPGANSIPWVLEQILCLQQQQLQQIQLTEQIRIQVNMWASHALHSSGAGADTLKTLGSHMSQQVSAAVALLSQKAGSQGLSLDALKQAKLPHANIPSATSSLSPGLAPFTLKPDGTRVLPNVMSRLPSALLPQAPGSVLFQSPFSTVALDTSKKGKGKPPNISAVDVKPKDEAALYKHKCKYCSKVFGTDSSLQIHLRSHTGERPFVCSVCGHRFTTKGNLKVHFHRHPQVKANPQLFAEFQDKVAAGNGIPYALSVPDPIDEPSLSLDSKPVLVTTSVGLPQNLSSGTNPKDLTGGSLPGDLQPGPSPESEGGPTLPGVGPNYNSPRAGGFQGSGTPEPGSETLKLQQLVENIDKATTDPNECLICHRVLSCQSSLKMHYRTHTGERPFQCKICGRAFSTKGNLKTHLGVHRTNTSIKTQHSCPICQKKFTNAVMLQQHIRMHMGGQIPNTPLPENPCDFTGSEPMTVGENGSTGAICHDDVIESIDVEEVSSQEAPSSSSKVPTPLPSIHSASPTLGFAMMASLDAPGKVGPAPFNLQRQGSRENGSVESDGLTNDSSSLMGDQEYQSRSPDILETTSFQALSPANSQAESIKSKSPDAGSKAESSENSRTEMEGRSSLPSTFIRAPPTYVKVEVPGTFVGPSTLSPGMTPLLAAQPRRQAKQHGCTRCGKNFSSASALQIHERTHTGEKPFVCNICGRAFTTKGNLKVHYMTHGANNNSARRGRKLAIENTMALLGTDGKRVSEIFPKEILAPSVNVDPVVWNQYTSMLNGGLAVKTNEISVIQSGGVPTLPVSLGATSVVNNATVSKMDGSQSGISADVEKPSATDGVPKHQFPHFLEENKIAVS
# Technique: universal PBM
# Form: double-stranded DNA, one strand shown
# Matrix: in vitro
# Concentration: 600 nM
# Notes: 8-mer, flanks averaged, mean of replicates
# Direction: higher = stronger binding
Strand,E-score
CACAGAGA,-0.00307
GGTTTTAA,0.0674
GACGTAGC,-0.153
CCATTTTC,0.183
GAATCGTC,-0.115
GACGCCCC,-0.396
GAGTATGC,0.0756
CGAGTGAG,-0.215
CCTAACTA,0.132
AAACAGTC,0.0087
ACTATGAG,0.114
CAATCTTA,0.179
GGGGACAA,-0.183
CAGCATTC,-0.0828
ATTGCTAG,0.152
TACCCTGA,-0.093
AGGTCTCG,-0.172
ACTGAAAG,0.0396
ACTTAGCC,-0.103
CCACTCCC,-0.194
ACGGGCTA,-0.134
CAGAAGGC,-0.294
AATTCGGA,0.0639
GTTTAAAC,0.186

# Study 3
# Target: CCNA2, cyclin fold, Cln2 fusion (human)
# Technique: yeast growth competition, sequencing
# Matrix: yeast
# Notes: strong parent motif
# Relative to: not given
# Direction: higher = stronger binding
# Starting sequence: ORC1 docking peptide (human); PRARKRLELGNLG
Substitution,normalised enrichment score
N11D,5.67
L7N,0.168
P1I,4.14
A3Y,2.34
G10Y,6.43
L9M,6.06
N11H,5.48
E8D,6.2
G13W,3.32
R4A,1.7
E8L,3.5
R6M,2.45
R6V,1.45
P1Y,3.18
L7F,0.625
R2D,2.91
L7T,0.227
R6K,4.87

# Study 4
# Target: Hepatocyte nuclear factor 3-alpha (Foxa1, Mus musculus, UniProt P35582, residues 1-468, full length assumed)
# Technique: EMSA with sequencing
# Form: double-stranded DNA, one strand shown
# Matrix: in vitro
# Concentration: 10 and 20 nM
# Notes: whole designed probe, mean of two concentrations, ends assumed
# Relative to: negative control set to 0
# Direction: higher = stronger binding
# Construct (chain): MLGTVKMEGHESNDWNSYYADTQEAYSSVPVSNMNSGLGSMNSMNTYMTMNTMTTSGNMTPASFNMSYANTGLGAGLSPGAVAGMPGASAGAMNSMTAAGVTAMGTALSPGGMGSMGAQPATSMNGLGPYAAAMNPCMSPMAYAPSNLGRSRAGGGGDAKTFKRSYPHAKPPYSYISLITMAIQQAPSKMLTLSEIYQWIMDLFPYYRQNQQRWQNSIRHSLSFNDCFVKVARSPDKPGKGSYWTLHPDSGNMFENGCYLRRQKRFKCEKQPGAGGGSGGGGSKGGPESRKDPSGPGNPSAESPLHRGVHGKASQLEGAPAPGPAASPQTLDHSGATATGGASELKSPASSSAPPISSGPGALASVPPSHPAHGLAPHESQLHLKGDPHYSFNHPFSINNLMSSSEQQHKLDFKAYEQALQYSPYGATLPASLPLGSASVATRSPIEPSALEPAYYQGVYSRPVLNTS
Strand,normalised bound fraction
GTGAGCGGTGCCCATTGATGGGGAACTACTGAATAATAATTATTAAGCTATATACTTACAGAAAAGAGGATATGAAAATATTAATCAAGTATGACCTCTACTGGTAACTTTTATGCACTGTCAACAAGAGATCTAAGATTTTTATTGAGCTCCTACCATAAAGACACATCATTTCAATTCAACCATCAGTAGCCTCTACTTTTTAAAAAAATATTTTTATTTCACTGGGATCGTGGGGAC,0.101 ratio
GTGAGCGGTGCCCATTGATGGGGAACCACAAAATTTTCCATTTGCTTCTCCTGCATTTAGAAGCATCCACTTCCCTCTCTTCCCTTTGCTTTTGAAATATAAGTGTAATATTTGCCCAGGGTAAACAGACTTGGAGCTTGGGAGACAGCATTGTGTAATGGATGTTAATTTGGCCTGATTTCACTCTTGGCTCTCTGATTTGTTAGATCTATGAACCTGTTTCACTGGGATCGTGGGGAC,0.205 ratio
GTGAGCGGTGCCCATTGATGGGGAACGTAACTACAGTCTCAACCTGCCACATTTTATCATAGGATCAAATCCAGTAATAAAATAATGAGTCTTGGAGGGCAGGCCAGACAGCTCATCTGTGTTTACTGAAAGCATCCAGCATATCTTATGAGAGAGCTCGTGCCAAACAGATGGGTGGCCGCCCTCCCTCATCTGCCTGCCTGAGGCTTGCCCAACTGCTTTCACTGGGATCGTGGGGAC,0.1 ratio
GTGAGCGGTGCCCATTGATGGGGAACGTGCAGCGCTCCTTCACAACACACACGTGAGCTGGGGCTGTAGCAGGTGGCCTGCCGACCAGCGTCTCCCCAACCCCCACAACATGCACTCAAAGTAAACAACAGCATTAGACAATTAGAAACCTACTTCCAGTCAACCTTACGCTCACTGAGGCCACTGCAGCACCGCCAGCCACGTCTCCAAAGCAGGCGATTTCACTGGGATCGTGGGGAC,0.437 ratio
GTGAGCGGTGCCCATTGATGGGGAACCCTGAGTTGGTGGAGCCACAAAAAGGAATCCCTGAGTCACTGCTTAGTCACTGGGCTGCCTTGGAGAGTTGATGAGACCTCAGCAAACTTTGTGTAAATAAAGAAATGAACGCTTACATTTTAACTACCGGAACTTGGAGGTTTGTTTGTTACTGCAACAAAGGTTAGCTTTATTGACTAATGCACTGTAACATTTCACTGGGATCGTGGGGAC,0.494 ratio
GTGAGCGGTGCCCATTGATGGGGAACACAAAAATTCTTGAGCCATTTCCAGATACCGAATCTGACTCAGTGTTGGCAAAACCTACAAAATGAGTGACCAAGAAGGATAAACAAGTTTAGGTAATCTCTCTATAGACTGATTCATGATTTAAGTACATCAGTTAGCATTTAGCTTCATTTACCATCGTGTTTTAATGTCATTAAGAATGTAACTTCTTAGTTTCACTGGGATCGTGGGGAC,0.0431 ratio
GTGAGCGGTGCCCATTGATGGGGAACTATCTTTCCTCTGACTGACAGCCTGAAGGATCGTCTATGTGATTTTTGTGTTGCTGAGGTGAAAACAATCTTTATTTGGATTGAATAGCAGAGTAATCTGGAATGAAAAAGAGACACAAAAGTTTACAGTACAGATGGTTTTCCAATTCTTTTACAAAAATTGTCTGTCTTATCAATTAAAGGTGCATTTACCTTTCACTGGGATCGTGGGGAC,0.0113 ratio
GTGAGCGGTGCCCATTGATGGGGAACTGTGTTCAGTAAACTACATTTAAAAAAACTAGGAAAGACTATACTTTCAGGGGTCATTTCTATCTGAACAACCTGCTCCTGAATGACTAATGGGTAAATAATGAAATTAAGGCAGAAATAAACAAGTTCTTTGAAAACAGTGAGAACAAAGACACAACGTACCAAAATCTCTGGGACACAGCTAAAGCAGTGTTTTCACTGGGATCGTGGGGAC,0.172 ratio
